Published values gathered from unrelated publications.
Every numbered part comes from another study and shows a few of its results, in no order.

Sample 1
Target: RNA binding protein fox-1 homolog 2, RRM domain, GST-SBP tag (RBFOX2, Homo sapiens, UniProt O43251-10, residues 100-194)
Technique: RNA Bind-n-Seq
Form: RNA
Sample: in vitro
Concentration: 365 nM
Notes: natural RNA segment, single round, ends assumed
Relative to: no-protein control
Reading: higher = stronger binding
Measurement: RBNS enrichment (R)
All sequences stand within: GGGAGUUCUACAGUCCGACGAUC … UGGAAUUCUCGGGUGCCAA
Target sequence (chain): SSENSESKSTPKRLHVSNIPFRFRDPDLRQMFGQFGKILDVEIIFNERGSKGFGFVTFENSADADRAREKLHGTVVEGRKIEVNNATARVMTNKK
ACUUCCCCACAAUGCUGCAUUACCGAUAGGACCUAGUGUUUACUACAGUGUAAAUGUUUAUAUGGACACAGAACAGCAUCACUAAAUAAAGCCUUUCUACUUGUGGGUGC: 0.813
UUGUUUAAUUACAGUCGGAAAGACUUAAGGUUUUUCUUUUAAUUUAAUUUAUUCCCUGACAUUGCUGGUGACACUGGGAAGGGAACAAGCCACAGGGAUGAGGUGAAGCC: 0.511
AGGAAGUUGAGUCCUAGUGCAAAAUGCAGGCGGACGUUGCCAGAGAGUGCGCAGCAAAUGACCUUCAUUGCCAGUUCCACCCUACUCCUCUCAUUUUUUAUACUAAGCAA: 0.448
GGUCCUGGAUGCCCAGCUGGGCUACCCAGGUGCCAGCAUGUUUGCAUGGGAGGAAAGGCUCCACUUGCCCUUAACUCAAGAAGCAGAGCUUGUGCUAUGCACGGGGUGUC: 27.2
GGCUGUUCUUACUGUCCAAAUGAAGCUAAAAAGAAAGGCAUCUUUCUUCCCUUUUAAAAUUGUGUAAACUGCAAAUUAUAAUAUAAUUUGAAUUUAUGAUUAUUUUCCAG: 0.373
UAUUUUGUACUGUAAUGAAUGUGAGUCACUCAGCUGCUUACCUGAACAUAACCUUAUGCUGCCCUUGGCUUGGCCACAUUUGUUAAAUCCUUAUUAUAUUGAUACUCUUC: 0.726
UUGACUUGGAAAGACUUUCAUCUCCUUGGAACCAAGACUUCCUGAGUCCCCCUCACCCUGGCCCUGUUCCACCAUGGUUAUCUGGGUAUUGGGGAAUGGAAACUUUGGGG: 0.217
UCAGUAAAAUGGACUAGCAUAUUAUUUAUCUUGUUCUUCAGUUAACAACUUUGUGUUCUCUGUGGGAGGGAGGGAGUCCUGUGUGUUUGUGGGGAGAGGGAAGGAGGAAG: 0.649
UUUCUGAAGCCUGCUUUUAUACCGGAUGUUCUAUAAAUUAUAACUUUUAAAGUUGGGCUUUUUAAUUACUUUACAAAUACCCAUGAGUGGGACAGAUGUUCUGAACCUGG: 0.556
CCACGGAGAGCUCCAGGCAGAGCCCACAGUACCACAGUGUGCCCACACCACCGGUUACUGGCUCCUGGAUGAGGGGGCCAGAGAGGAGUGAAUAACUUCCCAGACACUUA: 0.436
AUGUGUACUCAGAAGAUCAAUAAGGUAAUAUUGGAAUUCAUGUGUUUUUUGCAAUUAAGGCAGGCAUUUGCCAAUGUCUUCUUUUAAGCAGUAGUUGGAAACAUCUCAAU: 0.275
GGUUUCAGGUGUUAAUAUGUAAACAAGCAUCUCAUUUAACUUCACUGUGCUCAGCUUUGAAAAGAACAAAGAUUUAUACCUCUGUACAUGUGGAUAGAUAGAAGUGUCCU: 0.365

Sample 2
Target: Centromere-binding protein 1, full length, N-terminal tag (CBF1, Saccharomyces cerevisiae, UniProt P17106, residues 1-351)
Sequence of UniProt P17106 (whole entry, looked up): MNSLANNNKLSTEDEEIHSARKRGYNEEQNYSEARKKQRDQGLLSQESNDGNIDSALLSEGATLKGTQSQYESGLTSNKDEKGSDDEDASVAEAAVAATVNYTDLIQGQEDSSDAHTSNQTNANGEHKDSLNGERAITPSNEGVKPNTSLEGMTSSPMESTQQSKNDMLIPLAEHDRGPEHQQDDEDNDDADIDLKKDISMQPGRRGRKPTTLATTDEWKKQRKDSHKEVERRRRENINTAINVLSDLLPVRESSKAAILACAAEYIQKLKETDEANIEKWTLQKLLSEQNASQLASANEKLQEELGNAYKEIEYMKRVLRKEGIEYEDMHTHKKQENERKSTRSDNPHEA
Technique: protein-binding microarray
Form: double-stranded DNA, one strand shown
Sample: in vitro
Concentration: 0.8 µM
Notes: whole 60-bp probe, no competitor
Reading: higher = stronger binding
Measurement: fluorescence intensity
All sequences stand within: … GTCTTGATTCGCTTGACGCTGCTG
CTAGAAAAAATGTACCACGCGAAGTTAAGTGTCTTC: 540 a.u.
GAATGTCTGCTACATATCGTGAGGTACGAATATTAG: 514 a.u.
GAATCTGTGAAATATGTCACCTCGAACTTACCTTAG: 499 a.u.
CCTAACTACTATATGCATGTGATATAGCTTCGTACA: 1590 a.u.
CTATCGTCGATGGCCATCATGATTGCCCTTTTTTTC: 488 a.u.
CTAGAACCACTTGGTCAGGTGCGGTACGTAAAATTC: 1320 a.u.
CCTAACTACTATAACCAGGTGAGATAGCTTCGTACA: 536 a.u.
CTAGGGGAAGGCACAGGAGATACCCCCACTAAATTC: 473 a.u.
GAACCACGAGCACATGGGGTGAGTTATATAACATAG: 837 a.u.
TGTACGAAGCTATGCCACATGGCTATAGTAGTTAGG: 523 a.u.
CTAAAGCGAAGACATCAGACATTCCAGTAGGGTTTC: 527 a.u.
CTATCTATACTATGACGCGTCACGAATTGTGCTTTC: 607 a.u.
CTACATAATCTCGCGCACGCTCTTGCTATTGACTTC: 570 a.u.
GAAAATAGGAAACGTGACGGCAGAAACGCATTCTAG: 2920 a.u.
CTAGAACACTTTAATCACGCTTATTTAATTAAGTTC: 1030 a.u.
GAATCACCAAGCTATCTGGTGTCACATTGTGAATAG: 738 a.u.
GAACGTATGTTGAAAAACGTGCGTAAATAAGGCTAG: 749 a.u.
CTATCATGGCAACGTCACCTCAATTATTTGGAATTC: 523 a.u.
GAATACACTATTCACCAGACCCGCTCCTTCTCCTAG: 520 a.u.
TGTACGAAGCTATCTCATGTGTGTATAGTAGTTAGG: 519 a.u.
GAACATTGCTATCATGACGTATTTTTAATGTTATAG: 568 a.u.
GAATCTACGGAAGCCCACCAGATAAGCGCCTTTTAG: 496 a.u.
GAAAGAAAAATTACTTTCATGATGCGAAGCGAATAG: 507 a.u.
GAAAAGGTCCATGATCATCAGGATCAACTAATCTAG: 517 a.u.
GAATGATATTCCACTCACGAGCTACAGGTAGTATAG: 631 a.u.

Sample 3
Target: RING finger protein unkempt homolog, zinc fingers 1-6, GST-SBP tag (UNK, Homo sapiens, UniProt Q9C0B0, residues 30-357)
Technique: RNA Bind-n-Seq
Form: RNA
Sample: in vitro
Concentration: not given
Notes: RNA with constant flanks, ends assumed
Relative to: input RNA pool
Reading: higher = stronger binding
Measurement: bound/input enrichment
All sequences stand within: GGGAGUUCUACAGUCCGACGAUC … CAACAGAGGAUUGAGCAUCA
Residues (chain): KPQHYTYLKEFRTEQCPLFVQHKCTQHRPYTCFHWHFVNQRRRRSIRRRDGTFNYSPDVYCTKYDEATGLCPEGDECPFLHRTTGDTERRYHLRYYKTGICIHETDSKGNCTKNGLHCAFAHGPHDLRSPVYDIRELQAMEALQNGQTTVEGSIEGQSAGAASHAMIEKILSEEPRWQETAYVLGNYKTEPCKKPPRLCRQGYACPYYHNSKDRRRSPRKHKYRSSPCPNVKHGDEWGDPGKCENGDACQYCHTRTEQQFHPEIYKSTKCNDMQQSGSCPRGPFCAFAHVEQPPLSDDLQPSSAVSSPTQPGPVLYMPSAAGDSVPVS
AGGAUAAACUAAGCCAUUUUAUGUAUUUUAUUUUAAACCUUAUUUUGGCAGAGUAAUUCCUCCGAAUUGGAAAAGCUGUUACUUUGAAAUUACCAAUUUAUUACAAAACAUAGAAAUGUA: 2.31 ratio
UGAGCUGCCGAAGCCGCCGUCCUGCUCUCCCGCGUGGGCUUCUCUAAUUCCAUUGUUUUUUUCCGAUUCUCUCGGGCCUAGCCGUCCUUGGAACCCGAUAUUCGGGCUGGGCGGUUCCGC: 0.279 ratio
CAGCCUGGGGACACAGCCAAGGCUGUGGUGGCACAAGCUGUCCGUCAUCUCCCGCAGUCUGUCCGGAUUUACAUCAGAGCAGCAGAGCUAGAAACAGACAUUCGAGCAAAGAAGCGUGUU: 0.137 ratio
GGCUAUGAUGUUUUAGCCAACCCCCCAGGACCAGAAGACCAGGAUGAUGAUGACGAUGCCUACCGCGAUGUGUUUGAAUUUGAAUUUUCAGAGACCCCCCUCUUACCGUGUUAUAACAUC: 0.487 ratio
ACUACCCACAAAGAAGAAAAGAGUUUACUAGAACUAGAAGUUGAUUUGGAUAACUUGGAAUCCGAGGAUAUUGACACAACAGACAUUAAUCUGGAUGAAGAUAUUCUGGAUGAUUAAAGU: 0.429 ratio
GGCUGUGGAAUCAGUCCAGAAAUUCAUUGUGAUGGUGGCCACACAUUCAGACCUCCUUCUGUCCGCAACUACUGCAUCUGUGACAUUACAAAUGGCAAUCACAGUGUGGAUGAGAUGCCG: 0.202 ratio
CUUCCAUUUAUUGUUUCUCAUAGAUUGUCUAAUACCUUGAGCUUAGAUAUUCAUGAAAAUCACCGUUUUGCACUUCUAGGGAAGAAGAAAUCAAGCAAUUUGACAUUACCACCCAAAUAU: 0.312 ratio
AAGCCAAUUCAGAACUUCAUUGAAACUGACACUACAGAAGCUGUAGGAAAUGUAUGUCAGCCCGCACAAGCAGAGCACAUAUUAAAAUCCUGUCCAUUUCGGAGCCCUAUUCCAAUCUGG: 0.146 ratio
CCAGAGGAGAUGCUGUCUAUGUACUGUGCUACUCUUUGAUUCUACUUUCCAUUGACCUCACCCGUCCUCAUGUGAAGAAUAAAAUGUCAAAAAGAGAGUUUAUUCGAAAUACGCGCCGUG: 0.0823 ratio
GUCUGCAUUUAUCUUUCUUCCAAGUUUUUCUAAUUCUAAUGCUAUUUGUUAUAAUUCCGGUUUGGGAUAAAAAUAUGCUUUUGGAAGAUUUAAAAAGAAAAUUAAAACAGCUCUUCCUGA: 1.11 ratio
UCUGUGUAUGCACACUCCACCCCAGAGUGUUUUCAGUGUGCCAGAGAAGCAGCUGCCGCGUCCGGACAUGAGCCUGUCUAGUGUUUCCUAGGAAAGGGAUAGUUUUCUGUUGGUAUAGCA: 3.49 ratio

Sample 4
Target: Sal-like protein 4, full length isoform A (SALL4, Homo sapiens, UniProt Q9UJQ4, residues 1-1053)
Sequence of UniProt Q9UJQ4 (whole entry, looked up): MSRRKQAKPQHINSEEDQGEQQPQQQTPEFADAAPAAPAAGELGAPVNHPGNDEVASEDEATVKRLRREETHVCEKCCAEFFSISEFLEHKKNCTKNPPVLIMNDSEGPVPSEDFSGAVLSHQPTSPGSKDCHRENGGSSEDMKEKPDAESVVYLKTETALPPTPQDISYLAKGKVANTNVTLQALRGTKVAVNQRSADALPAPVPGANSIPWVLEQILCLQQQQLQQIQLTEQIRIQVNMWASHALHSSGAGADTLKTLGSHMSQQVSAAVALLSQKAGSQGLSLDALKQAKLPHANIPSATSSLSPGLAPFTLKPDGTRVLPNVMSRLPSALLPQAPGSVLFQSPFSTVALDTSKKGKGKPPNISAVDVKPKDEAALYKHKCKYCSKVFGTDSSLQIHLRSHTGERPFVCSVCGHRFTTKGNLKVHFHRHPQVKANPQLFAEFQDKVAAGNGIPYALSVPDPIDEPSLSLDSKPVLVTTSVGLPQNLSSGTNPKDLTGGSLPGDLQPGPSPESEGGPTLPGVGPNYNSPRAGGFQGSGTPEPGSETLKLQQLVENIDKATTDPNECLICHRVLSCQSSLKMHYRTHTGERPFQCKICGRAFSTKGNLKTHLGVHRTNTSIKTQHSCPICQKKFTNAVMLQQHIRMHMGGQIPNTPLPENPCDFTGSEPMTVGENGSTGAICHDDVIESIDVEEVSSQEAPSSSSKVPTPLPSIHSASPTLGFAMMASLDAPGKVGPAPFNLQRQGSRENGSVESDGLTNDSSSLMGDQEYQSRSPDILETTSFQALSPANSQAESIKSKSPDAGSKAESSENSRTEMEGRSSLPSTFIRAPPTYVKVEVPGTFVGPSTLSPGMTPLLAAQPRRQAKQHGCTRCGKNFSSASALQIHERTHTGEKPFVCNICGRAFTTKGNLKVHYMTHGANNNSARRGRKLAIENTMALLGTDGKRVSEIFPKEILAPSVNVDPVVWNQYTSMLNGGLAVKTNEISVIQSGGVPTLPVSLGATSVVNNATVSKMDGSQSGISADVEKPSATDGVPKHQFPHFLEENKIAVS
Technique: universal PBM
Form: double-stranded DNA, one strand shown
Sample: in vitro
Concentration: 600 nM
Notes: 8-mer, flanks averaged, mean of replicates
Reading: higher = stronger binding
Measurement: E-score
ATAAAAAC: 0.32
CGACGGCC: -0.289
AACTGCGG: -0.188
ATCCCCCG: -0.159
AAGCTTAT: 0.227
ACAGAAGT: 0.222
GTTCGGCA: 0.0381
AGGAAATA: 0.324
TACAAAGA: 0.324
CAGATCAA: -0.14
ATATAAAG: 0.322
CGTCTGTA: -0.0239
CCTCAGGA: -0.183
GACCGAAC: -0.0663
CCAAATCG: 0.104
TCGACAAA: 0.137
ACCGGACG: -0.207
CCAGTATA: 0.194
AAGTCGCA: 0.0593
AAACTTAG: 0.101
ATAACTTA: 0.377
TCAAGTAA: 0.287
CACGTCAG: -0.159
CCATGCAG: -0.286
TTCGAGAA: 0.0918
